# Assay results pooled from the literature.
# Parts stem from different laboratories: compare values within a part only. Positions count from the first letter of the parent shown.
# Sequence of UniProt Q9UK32 (whole entry, looked up): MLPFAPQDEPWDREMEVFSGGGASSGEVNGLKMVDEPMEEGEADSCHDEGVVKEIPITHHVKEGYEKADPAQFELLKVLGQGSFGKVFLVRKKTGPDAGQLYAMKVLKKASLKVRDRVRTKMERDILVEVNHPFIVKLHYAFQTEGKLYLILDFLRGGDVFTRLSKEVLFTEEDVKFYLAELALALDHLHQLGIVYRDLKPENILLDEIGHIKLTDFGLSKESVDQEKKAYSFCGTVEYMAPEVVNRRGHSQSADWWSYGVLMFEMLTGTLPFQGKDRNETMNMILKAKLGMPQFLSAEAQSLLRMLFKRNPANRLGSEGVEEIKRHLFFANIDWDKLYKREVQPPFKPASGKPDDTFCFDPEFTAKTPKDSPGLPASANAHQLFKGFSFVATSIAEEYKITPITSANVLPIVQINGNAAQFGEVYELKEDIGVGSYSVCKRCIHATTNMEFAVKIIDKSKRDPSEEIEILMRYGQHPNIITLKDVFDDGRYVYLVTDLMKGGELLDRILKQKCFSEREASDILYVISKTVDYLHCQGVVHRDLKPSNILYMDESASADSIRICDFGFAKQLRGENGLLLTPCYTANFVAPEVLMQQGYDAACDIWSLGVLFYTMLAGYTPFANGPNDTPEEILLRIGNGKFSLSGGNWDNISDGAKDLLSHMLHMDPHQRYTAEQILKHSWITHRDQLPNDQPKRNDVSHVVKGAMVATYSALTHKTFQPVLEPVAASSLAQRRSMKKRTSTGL
# Sequence of UniProt P53779 (whole entry, looked up): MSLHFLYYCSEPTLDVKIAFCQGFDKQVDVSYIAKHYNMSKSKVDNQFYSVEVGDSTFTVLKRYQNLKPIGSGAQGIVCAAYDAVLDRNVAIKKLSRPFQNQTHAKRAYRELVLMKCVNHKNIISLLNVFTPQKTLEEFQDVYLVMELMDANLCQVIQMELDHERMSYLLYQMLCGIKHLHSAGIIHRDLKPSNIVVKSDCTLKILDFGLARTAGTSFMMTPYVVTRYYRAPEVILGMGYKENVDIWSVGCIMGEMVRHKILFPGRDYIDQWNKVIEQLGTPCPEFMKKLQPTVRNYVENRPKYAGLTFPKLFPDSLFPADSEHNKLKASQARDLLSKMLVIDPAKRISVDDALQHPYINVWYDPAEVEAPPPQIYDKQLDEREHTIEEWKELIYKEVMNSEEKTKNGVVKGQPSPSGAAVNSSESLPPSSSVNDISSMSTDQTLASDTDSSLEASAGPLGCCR
# Sequence of UniProt P54753 (whole entry, looked up): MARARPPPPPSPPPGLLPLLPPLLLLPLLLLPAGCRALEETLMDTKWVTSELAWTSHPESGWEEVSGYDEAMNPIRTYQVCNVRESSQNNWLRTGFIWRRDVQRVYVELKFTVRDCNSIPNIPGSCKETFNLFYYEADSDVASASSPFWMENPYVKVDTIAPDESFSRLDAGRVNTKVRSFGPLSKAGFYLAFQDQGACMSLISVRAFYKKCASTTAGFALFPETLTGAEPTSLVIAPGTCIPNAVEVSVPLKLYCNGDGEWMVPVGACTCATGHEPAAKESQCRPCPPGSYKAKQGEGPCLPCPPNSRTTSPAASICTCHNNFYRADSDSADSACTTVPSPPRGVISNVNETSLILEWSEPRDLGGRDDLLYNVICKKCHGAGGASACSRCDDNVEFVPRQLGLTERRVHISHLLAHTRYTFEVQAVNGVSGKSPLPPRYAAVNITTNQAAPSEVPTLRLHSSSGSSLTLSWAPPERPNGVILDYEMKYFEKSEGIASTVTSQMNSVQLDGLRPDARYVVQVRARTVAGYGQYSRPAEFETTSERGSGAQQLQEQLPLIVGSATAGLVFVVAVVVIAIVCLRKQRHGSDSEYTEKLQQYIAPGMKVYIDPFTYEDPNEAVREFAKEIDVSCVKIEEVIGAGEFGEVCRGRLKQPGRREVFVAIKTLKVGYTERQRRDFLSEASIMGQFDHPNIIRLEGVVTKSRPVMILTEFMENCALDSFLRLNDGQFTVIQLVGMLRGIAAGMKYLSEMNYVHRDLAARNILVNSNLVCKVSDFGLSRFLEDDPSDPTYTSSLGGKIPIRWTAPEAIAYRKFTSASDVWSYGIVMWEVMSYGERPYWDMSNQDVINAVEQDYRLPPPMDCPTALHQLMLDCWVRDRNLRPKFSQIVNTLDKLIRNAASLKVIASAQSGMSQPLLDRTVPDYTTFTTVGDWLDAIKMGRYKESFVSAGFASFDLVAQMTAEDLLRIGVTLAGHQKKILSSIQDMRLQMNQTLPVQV
# Sequence of UniProt P21127 (whole entry, looked up): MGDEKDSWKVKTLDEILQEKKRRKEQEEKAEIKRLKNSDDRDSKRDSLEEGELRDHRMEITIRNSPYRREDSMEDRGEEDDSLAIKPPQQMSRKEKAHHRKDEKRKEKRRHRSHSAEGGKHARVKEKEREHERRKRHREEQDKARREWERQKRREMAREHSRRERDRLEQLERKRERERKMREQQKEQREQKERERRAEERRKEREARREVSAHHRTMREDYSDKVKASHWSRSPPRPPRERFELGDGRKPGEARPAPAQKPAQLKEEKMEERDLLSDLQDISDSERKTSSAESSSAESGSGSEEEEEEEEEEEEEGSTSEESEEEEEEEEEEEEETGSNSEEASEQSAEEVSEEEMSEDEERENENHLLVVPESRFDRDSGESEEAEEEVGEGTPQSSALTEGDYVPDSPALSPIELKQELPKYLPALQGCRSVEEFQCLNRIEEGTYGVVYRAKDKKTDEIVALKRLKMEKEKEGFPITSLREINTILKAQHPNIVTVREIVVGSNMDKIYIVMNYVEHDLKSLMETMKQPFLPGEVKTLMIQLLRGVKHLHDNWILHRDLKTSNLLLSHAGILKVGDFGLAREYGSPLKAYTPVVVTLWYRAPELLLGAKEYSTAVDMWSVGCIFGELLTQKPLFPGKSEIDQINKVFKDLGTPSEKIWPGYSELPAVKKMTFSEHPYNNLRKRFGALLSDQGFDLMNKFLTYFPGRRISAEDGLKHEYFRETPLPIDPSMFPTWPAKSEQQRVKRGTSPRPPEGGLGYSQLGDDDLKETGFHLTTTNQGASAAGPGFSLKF
# Sequence of UniProt P27037 (whole entry, looked up): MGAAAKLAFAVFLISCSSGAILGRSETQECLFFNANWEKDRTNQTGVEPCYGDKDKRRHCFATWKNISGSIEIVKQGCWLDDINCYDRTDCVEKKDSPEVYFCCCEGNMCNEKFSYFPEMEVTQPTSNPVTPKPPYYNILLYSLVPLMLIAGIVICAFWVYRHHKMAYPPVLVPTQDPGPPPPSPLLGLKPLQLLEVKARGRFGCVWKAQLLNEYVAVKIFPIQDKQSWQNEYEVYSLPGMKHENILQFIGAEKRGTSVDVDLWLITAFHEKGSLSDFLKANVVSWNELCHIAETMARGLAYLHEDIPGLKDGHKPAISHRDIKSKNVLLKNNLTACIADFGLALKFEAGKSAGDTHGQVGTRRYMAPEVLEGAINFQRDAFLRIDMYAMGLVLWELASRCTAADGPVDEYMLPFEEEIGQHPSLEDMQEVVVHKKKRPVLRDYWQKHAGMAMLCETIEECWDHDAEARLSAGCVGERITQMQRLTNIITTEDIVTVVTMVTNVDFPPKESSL
# Sequence of UniProt P10721 (whole entry, looked up): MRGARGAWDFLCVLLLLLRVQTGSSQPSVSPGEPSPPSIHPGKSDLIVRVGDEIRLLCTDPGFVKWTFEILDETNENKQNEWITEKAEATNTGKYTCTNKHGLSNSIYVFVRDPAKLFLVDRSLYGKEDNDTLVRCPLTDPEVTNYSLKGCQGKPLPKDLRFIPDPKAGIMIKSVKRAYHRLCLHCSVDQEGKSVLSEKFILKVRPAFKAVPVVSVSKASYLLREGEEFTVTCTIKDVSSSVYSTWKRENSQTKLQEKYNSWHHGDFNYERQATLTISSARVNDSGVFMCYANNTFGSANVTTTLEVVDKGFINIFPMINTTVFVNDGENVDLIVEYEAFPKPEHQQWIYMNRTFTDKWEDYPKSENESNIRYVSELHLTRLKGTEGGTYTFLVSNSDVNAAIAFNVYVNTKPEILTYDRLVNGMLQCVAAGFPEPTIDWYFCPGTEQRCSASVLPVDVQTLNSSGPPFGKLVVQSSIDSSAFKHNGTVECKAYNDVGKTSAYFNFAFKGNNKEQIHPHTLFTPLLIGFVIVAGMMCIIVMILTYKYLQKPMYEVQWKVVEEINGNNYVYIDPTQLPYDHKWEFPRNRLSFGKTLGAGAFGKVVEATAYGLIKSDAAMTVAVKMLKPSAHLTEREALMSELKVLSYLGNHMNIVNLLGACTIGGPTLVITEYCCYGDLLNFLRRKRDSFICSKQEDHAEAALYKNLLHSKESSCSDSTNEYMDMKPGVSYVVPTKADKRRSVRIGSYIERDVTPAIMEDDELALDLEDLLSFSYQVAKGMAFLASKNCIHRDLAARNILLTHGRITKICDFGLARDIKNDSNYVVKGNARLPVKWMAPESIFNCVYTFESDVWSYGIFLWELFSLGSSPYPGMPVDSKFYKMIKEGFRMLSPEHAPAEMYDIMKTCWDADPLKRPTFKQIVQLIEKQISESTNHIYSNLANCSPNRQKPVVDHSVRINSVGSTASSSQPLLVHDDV
# Sequence of UniProt P06493 (whole entry, looked up): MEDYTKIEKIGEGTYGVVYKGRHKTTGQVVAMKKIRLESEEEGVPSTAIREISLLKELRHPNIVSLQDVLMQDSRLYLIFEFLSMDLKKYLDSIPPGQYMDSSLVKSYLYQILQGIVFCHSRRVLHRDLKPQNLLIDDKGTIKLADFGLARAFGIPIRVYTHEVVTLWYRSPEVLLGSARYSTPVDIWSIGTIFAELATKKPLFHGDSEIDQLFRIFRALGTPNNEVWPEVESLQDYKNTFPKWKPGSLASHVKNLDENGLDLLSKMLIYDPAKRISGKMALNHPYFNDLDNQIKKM

# Study 1
# Structure (SMILES): Cc1cc(C)c(-n2ccn3nc(-c4cccnc4)cc23)cc1NC(=O)c1cc(C#N)cc(S(F)(F)(F)(F)F)c1
# Read-out: cell-free assay
# Method: competition with immobilised ligand
# Tested at: 0.1 µM
target,remaining binding [%]
"LIM domain kinase 2 (LIMK2, Homo sapiens, UniProt P53671)",89
"Tyrosine-protein kinase ABL1, non-phosphorylated (ABL1, Homo sapiens, UniProt P00519, H396P)",69
"Serine/threonine-protein kinase Chk2 (CHEK2, Homo sapiens, UniProt O96017)",100
"Activin receptor type-2A (ACVR2A, Homo sapiens, UniProt P27037)",100
"MAP kinase-interacting serine/threonine-protein kinase 2 (MKNK2, Homo sapiens, UniProt Q9HBH9)",95
"Ribosomal protein S6 kinase alpha-6, N-terminal kinase domain (RPS6KA6, Homo sapiens, UniProt Q9UK32)",80.4
"Mast/stem cell growth factor receptor Kit, autoinhibited (KIT, Homo sapiens, UniProt P10721)",76.8
"Serine/threonine-protein kinase PAK 4 (PAK4, Homo sapiens, UniProt O96013)",70.4
"Cyclin-dependent kinase 11B (CDK11B, Homo sapiens, UniProt P21127)",93.2
"Receptor-type tyrosine-protein kinase FLT3 (FLT3, Homo sapiens, UniProt P36888, D835H)",87.8
"Phosphatidylinositol 4,5-bisphosphate 3-kinase catalytic subunit alpha isoform (PIK3CA, Homo sapiens, UniProt P42336, E545A)",73
"Serine/threonine-protein kinase VRK2 (VRK2, Homo sapiens, UniProt Q86Y07)",79.8
"Serine/threonine-protein kinase mTOR (MTOR, Homo sapiens, UniProt P42345)",70.1
"Mitogen-activated protein kinase kinase kinase kinase 3 (MAP4K3, Homo sapiens, UniProt Q8IVH8)",89.6
"Tyrosine-protein kinase ABL1, non-phosphorylated (ABL1, Homo sapiens, UniProt P00519)",29.2
"ALK tyrosine kinase receptor (ALK, Homo sapiens, UniProt Q9UM73, C1156Y)",76.6
"NT-3 growth factor receptor (NTRK3, Homo sapiens, UniProt Q16288)",60.4
"Ephrin type-B receptor 3 (EPHB3, Homo sapiens, UniProt P54753)",100
"Mitogen-activated protein kinase kinase kinase 14 (MAP3K14, Homo sapiens, UniProt Q99558)",100
"Serine/threonine-protein kinase tousled-like 1 (TLK1, Homo sapiens, UniProt Q9UKI8)",89.1
"Mitogen-activated protein kinase 10 (MAPK10, Homo sapiens, UniProt P53779)",100

# Study 2
# Target: CCNB3, cyclin fold, Cln2 fusion (human)
# Method: yeast growth competition, sequencing
# Sample: yeast
# Notes: weak parent motif
# Baseline: not given
# Direction: higher = stronger binding
# Starting sequence: RBL1 docking peptide (human); GSAKRRLFGEDPP
Substitution,normalised enrichment score
GSAKRRLFGDDPP [E10D],1.01
GSAKRRLFSEDPP [G9S],1.09
GSDKRRLFGEDPP [A3D],0.0625
GNAKRRLFGEDPP [S2N],0.435
GSAWRRLFGEDPP [K4W],0.464
GSAQRRLFGEDPP [K4Q],0.0132
GSAKRRLFGEHPP [D11H],0.298
GSAKRREFGEDPP [L7E],-0.149

# Study 3
# Compound: O=C1NC(=O)/C(=C/c2ccc3nccnc3c2)S1
# Read-out: enzyme activity
# Mode: inhibitor
# Tested at: 0.5 µM
# Baseline: control
target,remaining activity
"Serine/threonine-protein kinase 17A (STK17A, Homo sapiens, UniProt Q9UEE5)",94.6%
"Testis-specific serine/threonine-protein kinase 2 (TSSK2, Homo sapiens, UniProt Q96PF2)",88.7%
"Ribosomal protein S6 kinase alpha-6 (RPS6KA6, Homo sapiens, UniProt Q9UK32)",87.6%
"Cyclin-dependent kinase 1, with cyclin B (CDK1, Homo sapiens, UniProt P06493)",93.8%

# Study 4
# Target: ABI1, truncated, D143A, DHFR fusion (Arabidopsis thaliana)
# Method: DHFR PCA, deep sequencing
# Sample: yeast
# Notes: methotrexate growth selection, single substitutions
# Together with: (+)-ABA 0.0091 µM
# Baseline: wild-type fitted maximum
# Direction: higher = stronger binding
# Starting sequence: PYL1, truncated, DHFR fusion (Arabidopsis thaliana); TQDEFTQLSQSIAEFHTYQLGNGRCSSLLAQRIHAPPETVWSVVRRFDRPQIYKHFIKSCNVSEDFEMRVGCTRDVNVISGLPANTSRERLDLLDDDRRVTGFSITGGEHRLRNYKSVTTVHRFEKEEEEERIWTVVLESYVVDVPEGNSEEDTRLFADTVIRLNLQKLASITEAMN
Substitution,relative binding score
R88M,1.05%
E67Q,28.6%
R74P,-5.73%
V136W,-5.66%
E130M,14.3%
R98A,5.09%
E14Q,8.54%
L28M,14.2%

# Study 5
# Organism: Sarcocystis neurona
# Read-out: parasite activity
# Tested at: concentration not given
Structure (SMILES),activity class
C[C@]12CC[C@@H]3c4ccc(O)cc4CC[C@H]3[C@@H]1CC[C@@H]2O,inactive
CC(COc1ccccc1Cc1ccccc1)N1CCCCC1.O=P(O)(O)O (stereo not shown),inactive
CC1(C)O[C@@H]2C[C@H]3[C@@H]4CCC5=CC(=O)C=C[C@]5(C)[C@@]4(F)[C@@H](O)C[C@]3(C)[C@]2(C(=O)CO)O1,inactive

# Single results of other studies
SMILES,test,system,conditions,how to read,measurement,value
CC(C)n1cnc(-c2ccc(F)cc2)c1-c1ncc(C(=O)Nc2ccc(N3CCN(C)CC3)cc2)[nH]1,,IPF patients,"60 mg once daily, week 0 to 12",,acute exacerbation incidence,16.7%
C[C@@H]1OCC2(CCN(c3cnc(Sc4ccnc(N)c4Cl)c(N)n3)CC2)[C@@H]1N,"immunoblot, measured: phospho-ERK","Ba/F3 NRAS G12C, Mus musculus",0.1 µM,baseline: DMSO,ERK phosphorylation,95%

# Some of these lines once more (study 4):
Substitution,relative binding score
E67Q,28.6%
R74P,-5.73%
V136W,-5.66%
E130M,14.3%
R98A,5.09%
E14Q,8.54%
